Results of several laboratories.
Several values in a cell are separate wells, animals, samples, runs or records.
Target: Phosphatidylinositol 4,5-bisphosphate 3-kinase catalytic subunit gamma isoform (PIK3CG, Homo sapiens, UniProt P48736)
UniProt P48736, sequence (whole entry, looked up): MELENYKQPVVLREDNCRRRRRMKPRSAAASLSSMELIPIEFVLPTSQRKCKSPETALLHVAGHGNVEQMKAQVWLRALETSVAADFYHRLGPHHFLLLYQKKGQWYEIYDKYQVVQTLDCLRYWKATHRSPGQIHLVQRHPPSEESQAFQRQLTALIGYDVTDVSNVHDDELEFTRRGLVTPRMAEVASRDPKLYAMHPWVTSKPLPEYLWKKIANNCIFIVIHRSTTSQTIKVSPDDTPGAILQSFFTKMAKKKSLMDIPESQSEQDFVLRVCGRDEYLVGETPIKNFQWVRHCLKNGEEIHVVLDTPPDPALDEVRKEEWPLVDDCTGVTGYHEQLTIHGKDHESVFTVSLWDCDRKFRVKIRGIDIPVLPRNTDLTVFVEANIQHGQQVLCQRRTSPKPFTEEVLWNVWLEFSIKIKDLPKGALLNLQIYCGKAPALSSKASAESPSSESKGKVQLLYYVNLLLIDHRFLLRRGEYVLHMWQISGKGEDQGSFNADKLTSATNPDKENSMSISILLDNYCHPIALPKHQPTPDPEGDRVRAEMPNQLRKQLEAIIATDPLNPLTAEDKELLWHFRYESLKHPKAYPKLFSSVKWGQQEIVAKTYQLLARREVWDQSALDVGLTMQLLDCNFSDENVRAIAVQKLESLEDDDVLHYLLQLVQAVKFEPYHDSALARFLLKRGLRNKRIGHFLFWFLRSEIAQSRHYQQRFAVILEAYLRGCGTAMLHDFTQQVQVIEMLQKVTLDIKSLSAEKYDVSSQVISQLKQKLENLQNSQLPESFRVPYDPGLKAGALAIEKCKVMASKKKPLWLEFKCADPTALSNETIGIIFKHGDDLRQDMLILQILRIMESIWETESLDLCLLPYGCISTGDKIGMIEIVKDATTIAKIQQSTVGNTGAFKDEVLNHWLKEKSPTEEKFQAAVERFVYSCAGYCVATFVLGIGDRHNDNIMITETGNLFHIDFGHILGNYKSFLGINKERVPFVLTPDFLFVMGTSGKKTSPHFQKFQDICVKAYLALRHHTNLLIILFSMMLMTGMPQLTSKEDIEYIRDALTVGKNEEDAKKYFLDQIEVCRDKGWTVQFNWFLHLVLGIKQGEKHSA

| SMILES | test | system | setting | scale | measurement | result |
| --- | --- | --- | --- | --- | --- | --- |
| Cc1nc2c(F)cc(-c3nc(Nc4ccc(CNC(=O)CCCCCCC(=O)NO)cc4)ncc3F)cc2n1C(C)C | enzyme activity, inhibitor | – | 1 µM | – | inhibition | 38% |
| CN1CCN(Cc2ccc(-c3ccc(CO[C@H]4CCC[C@@H]4NC(=O)c4cc(-c5cnn(C)c5)cnc4N)cc3)cc2)CC1 | enzyme activity, inhibitor | – | 0.1 µM | – | inhibition | 11% |
| CNC1C[S+]2CC[S+]3CC[S+](C1)[Ru-4]321([N]=C=S)[n]2c3ccc(OC)cc3c3c4c(c5cc(F)c[n+]1c5c32)C(=O)NC4=O (stereo not drawn) | KinomeScan | – | 0.1 µM | reference: untreated | remaining binding | 100% |
| CC(=O)c1cnc(N)nc1N1CC[C@H]1c1nn2ccc(Cl)c2c(=O)n1-c1ccccc1 | KiNativ | intact human PBMC | 0.1 µM, 1 h | – | target engagement | 67.9% |
| CN1CCN(Cc2ccc(NC(=O)c3cccc(C#Cc4cnc(N)c5ncccc45)c3)cc2C(F)(F)F)CC1 | cell-free assay, competition with immobilised ligand | – | 50 nM | – | remaining binding | 89% |
| CC(=O)N1c2ccc(-c3ccc(CNC(=O)c4cn5cc(-c6cnc(N)nc6)nc(N6CCOCC6)c5n4)cc3)cc2CC[C@@H]1C | KINOMEscan | – | 10 µM | – | remaining binding | 0.4% |
| C=CC(=O)N1CCc2ccc(-n3c(=O)ccc4cnc5ccc(-c6cnn(C)c6)cc5c43)cc21 | KINOMEscan | – | 1 µM | reference: DMSO control | remaining binding | 100% |
| CNC(=O)C[C@H](Cc1ccc(C#N)cc1)NC(=O)c1cc(-c2ccc(CN[C@H](C)c3ccc(C)cc3)o2)ccc1Cl | enzyme activity, inhibitor | – | 1 µM | – | activity vs control | 97% |
| Cc1ccc(-c2c(/C=C(\C#N)C(=O)NC(C)C)n(CCCO)c3ncnc(N)c23)cc1 | cell-free assay, competition with immobilised ligand | – | 1 µM | – | remaining binding | 92% |
| COc1cc(Nc2nccc(-c3cnn4nc(OC)ccc34)n2)cc(C(F)(F)F)c1 | binding, competition with immobilised ligand | – | 1 µM | – | remaining binding | 65% |
| C=CC(=O)Nc1cccc(-c2cnc3[nH]cc(C(=O)NC(C)(C)C)c3n2)c1 | kinase activity | – | 0.1 µM | – | inhibition | 8% and 20% |
| CNS(=O)(=O)Nc1nccc(Cc2c(C)c3ccc(Oc4ncccc4F)cc3oc2=O)c1F | binding, competition with immobilised ligand | – | 10 µM | – | remaining binding | 100% |
| CS(=O)(=O)Nc1cccc(-c2csc3cnc(Nc4ccc(N5CCN(CCCCCOc6cccc7c6C(=O)N(C6CCC(=O)NC6=O)C7=O)CC5)cc4)nc23)c1 (stereo not drawn) | probe labelling, inhibitor, KiNativ chemoproteomics | MOLT-4 | 1 µM | – | inhibition | -36% |
| C=CC(=O)N1CCCC(n2c(=O)c3ncccc3n(Cc3ccc(Oc4ccccc4)cc3)c2=O)C1 (stereo not drawn) | cell-free assay, competition with immobilised ligand | – | 1 µM | – | remaining binding | 100% |
| O=C(Cc1ccc(OCc2ccccc2)cc1)NC1(C(=O)O)CCN(C(=O)c2ccc(-c3cccc(Cl)c3)cc2)CC1 | enzyme activity, inhibitor | – | 10 µM | – | activity vs control | 100% |

For quick reference, copied from above:
| SMILES | test | system | setting | scale | measurement | result |
| --- | --- | --- | --- | --- | --- | --- |
| CNC(=O)C[C@H](Cc1ccc(C#N)cc1)NC(=O)c1cc(-c2ccc(CN[C@H](C)c3ccc(C)cc3)o2)ccc1Cl | enzyme activity, inhibitor | – | 1 µM | – | activity vs control | 97% |
